Experimental data pooled from the literature.
Each numbered part is a random draw from the data of one study; scales do not carry over between parts.
Sequence of UniProt O43683 (whole entry, looked up): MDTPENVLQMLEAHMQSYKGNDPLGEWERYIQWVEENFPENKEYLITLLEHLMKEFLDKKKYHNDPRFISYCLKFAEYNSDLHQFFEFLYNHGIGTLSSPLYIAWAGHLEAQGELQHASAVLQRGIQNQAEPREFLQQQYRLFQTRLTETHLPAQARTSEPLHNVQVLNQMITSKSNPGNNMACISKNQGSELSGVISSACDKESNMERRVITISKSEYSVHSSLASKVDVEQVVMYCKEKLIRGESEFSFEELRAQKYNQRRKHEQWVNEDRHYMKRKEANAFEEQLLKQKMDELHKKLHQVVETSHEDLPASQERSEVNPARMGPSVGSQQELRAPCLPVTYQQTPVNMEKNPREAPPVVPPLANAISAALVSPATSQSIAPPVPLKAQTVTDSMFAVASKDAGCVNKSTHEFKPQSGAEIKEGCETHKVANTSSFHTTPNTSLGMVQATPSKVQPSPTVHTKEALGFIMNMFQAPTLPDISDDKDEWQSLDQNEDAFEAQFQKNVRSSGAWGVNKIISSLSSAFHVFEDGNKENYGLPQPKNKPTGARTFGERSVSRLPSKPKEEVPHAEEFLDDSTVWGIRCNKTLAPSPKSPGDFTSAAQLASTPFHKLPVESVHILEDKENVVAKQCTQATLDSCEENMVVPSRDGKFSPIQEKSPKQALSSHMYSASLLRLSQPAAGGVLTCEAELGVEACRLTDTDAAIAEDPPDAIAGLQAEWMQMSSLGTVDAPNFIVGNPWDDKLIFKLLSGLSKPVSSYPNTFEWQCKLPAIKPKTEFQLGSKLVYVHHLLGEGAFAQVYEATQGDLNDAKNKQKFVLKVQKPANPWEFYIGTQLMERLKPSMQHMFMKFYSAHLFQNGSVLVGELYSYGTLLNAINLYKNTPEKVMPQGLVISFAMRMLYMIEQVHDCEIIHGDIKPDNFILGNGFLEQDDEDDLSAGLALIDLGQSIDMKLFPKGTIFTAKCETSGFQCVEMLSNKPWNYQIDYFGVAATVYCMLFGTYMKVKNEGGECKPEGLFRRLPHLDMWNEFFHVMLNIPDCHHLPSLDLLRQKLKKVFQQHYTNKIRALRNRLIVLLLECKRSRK
Sequence of UniProt Q9UQM7 (whole entry, looked up): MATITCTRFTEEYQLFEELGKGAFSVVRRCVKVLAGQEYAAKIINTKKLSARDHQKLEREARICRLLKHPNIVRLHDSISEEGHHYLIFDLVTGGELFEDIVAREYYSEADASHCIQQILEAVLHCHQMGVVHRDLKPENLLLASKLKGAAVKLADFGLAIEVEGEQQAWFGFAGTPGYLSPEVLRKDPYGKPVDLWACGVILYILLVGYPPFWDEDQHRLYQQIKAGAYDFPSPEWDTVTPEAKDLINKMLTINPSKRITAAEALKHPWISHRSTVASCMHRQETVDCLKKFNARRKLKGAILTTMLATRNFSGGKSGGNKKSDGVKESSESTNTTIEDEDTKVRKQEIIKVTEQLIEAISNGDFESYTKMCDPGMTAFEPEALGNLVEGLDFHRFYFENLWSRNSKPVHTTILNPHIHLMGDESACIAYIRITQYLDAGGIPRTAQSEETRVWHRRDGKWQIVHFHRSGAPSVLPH
Sequence of UniProt Q9BX84 (whole entry, looked up): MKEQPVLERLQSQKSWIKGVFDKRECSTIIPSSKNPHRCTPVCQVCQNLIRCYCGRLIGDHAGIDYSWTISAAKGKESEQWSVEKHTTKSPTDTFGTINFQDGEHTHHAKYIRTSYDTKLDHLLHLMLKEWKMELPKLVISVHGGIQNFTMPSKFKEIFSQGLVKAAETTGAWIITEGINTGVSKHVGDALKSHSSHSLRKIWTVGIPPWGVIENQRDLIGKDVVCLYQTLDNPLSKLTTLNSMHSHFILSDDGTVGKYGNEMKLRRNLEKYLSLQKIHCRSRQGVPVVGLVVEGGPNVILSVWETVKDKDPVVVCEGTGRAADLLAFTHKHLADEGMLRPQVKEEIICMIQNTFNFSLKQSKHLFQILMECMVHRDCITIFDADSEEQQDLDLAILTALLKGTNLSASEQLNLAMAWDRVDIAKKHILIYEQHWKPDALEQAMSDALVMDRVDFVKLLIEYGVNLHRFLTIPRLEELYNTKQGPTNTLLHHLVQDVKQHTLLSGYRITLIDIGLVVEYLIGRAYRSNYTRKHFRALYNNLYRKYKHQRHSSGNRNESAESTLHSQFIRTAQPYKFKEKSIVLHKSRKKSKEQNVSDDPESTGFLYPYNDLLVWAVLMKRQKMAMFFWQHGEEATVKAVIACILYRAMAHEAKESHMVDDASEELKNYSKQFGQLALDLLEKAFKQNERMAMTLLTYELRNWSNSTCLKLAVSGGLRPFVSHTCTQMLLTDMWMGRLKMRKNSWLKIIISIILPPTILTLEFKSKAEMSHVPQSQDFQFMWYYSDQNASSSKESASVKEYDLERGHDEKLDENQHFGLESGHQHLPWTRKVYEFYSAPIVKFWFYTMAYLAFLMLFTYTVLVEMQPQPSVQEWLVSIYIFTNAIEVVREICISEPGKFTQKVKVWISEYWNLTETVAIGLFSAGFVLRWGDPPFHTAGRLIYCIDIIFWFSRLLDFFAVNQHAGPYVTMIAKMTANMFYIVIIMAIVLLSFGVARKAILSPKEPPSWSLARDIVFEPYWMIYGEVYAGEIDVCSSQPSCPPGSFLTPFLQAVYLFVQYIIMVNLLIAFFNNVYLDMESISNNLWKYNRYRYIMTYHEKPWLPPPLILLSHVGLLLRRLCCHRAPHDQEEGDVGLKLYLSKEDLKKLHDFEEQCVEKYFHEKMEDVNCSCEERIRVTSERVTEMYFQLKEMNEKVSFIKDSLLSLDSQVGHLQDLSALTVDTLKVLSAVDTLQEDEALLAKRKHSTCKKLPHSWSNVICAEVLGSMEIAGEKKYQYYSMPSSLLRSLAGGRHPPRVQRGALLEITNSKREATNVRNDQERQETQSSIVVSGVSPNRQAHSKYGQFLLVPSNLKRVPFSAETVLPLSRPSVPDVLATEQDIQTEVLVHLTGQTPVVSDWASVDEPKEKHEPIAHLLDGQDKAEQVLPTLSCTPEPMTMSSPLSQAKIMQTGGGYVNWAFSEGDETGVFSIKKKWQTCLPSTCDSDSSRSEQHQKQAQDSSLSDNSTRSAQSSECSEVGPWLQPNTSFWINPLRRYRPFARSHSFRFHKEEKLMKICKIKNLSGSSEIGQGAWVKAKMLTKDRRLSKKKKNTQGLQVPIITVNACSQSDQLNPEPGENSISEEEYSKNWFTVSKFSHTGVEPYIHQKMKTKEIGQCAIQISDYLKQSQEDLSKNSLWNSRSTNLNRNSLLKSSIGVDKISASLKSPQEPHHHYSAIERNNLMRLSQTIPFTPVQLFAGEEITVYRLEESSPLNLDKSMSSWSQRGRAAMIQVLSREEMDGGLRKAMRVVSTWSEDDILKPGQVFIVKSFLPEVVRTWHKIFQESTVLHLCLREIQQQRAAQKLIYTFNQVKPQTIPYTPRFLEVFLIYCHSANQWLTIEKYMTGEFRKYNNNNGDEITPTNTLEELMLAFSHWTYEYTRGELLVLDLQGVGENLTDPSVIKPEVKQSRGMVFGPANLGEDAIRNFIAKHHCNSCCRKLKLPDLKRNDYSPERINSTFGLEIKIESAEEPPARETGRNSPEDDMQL
Sequence of UniProt Q6DT37 (whole entry, looked up): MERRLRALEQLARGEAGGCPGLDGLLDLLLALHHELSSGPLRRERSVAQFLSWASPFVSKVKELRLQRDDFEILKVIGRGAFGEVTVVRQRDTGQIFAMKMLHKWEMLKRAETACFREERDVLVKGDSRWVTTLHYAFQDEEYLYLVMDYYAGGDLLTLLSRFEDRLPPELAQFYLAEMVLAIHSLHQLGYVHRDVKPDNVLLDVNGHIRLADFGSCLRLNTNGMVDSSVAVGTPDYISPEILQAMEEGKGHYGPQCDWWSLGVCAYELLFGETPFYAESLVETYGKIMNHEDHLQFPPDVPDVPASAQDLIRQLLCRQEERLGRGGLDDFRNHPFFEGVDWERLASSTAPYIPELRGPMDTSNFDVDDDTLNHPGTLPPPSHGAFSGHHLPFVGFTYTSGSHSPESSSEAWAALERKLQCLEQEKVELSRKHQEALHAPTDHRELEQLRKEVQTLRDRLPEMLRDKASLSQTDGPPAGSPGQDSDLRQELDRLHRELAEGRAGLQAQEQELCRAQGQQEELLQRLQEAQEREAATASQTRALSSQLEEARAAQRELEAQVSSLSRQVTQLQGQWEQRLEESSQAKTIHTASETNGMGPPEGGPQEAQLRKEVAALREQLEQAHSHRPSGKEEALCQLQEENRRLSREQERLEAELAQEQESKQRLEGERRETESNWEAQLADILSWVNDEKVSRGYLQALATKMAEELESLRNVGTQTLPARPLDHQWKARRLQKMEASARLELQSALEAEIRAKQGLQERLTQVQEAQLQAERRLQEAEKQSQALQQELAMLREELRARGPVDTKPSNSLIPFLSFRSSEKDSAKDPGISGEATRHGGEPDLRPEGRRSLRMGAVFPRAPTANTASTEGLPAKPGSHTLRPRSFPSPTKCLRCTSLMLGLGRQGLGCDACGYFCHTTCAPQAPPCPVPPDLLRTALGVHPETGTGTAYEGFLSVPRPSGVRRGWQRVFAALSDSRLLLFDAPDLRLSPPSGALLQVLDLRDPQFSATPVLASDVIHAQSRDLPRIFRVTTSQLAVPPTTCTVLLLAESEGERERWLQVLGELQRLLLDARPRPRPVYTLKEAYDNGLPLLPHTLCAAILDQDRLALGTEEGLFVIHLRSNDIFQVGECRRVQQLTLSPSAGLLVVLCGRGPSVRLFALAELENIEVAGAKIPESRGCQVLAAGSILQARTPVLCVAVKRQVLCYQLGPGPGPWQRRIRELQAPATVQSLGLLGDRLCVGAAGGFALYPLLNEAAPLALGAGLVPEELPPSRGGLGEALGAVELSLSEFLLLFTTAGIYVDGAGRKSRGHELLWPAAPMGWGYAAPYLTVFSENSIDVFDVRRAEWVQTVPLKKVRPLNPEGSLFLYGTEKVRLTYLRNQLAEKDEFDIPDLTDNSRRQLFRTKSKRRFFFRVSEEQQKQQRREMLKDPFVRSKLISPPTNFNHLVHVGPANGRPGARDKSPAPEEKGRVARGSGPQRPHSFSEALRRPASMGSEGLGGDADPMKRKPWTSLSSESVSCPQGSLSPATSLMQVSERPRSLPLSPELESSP

Study 1 — species: mouse; medium: microsomes or S9; tested at: 2 µM; time: 0.5 h; endpoint: remaining compound
COC(=O)[C@@H](O)c1c(C)nc2[nH]c3c(c2c1-c1ccc(Cl)cc1)CCCC3: 35.3%
OC1(CNCc2ccccc2)CCc2ccccc21 (centres unmarked): 5.67%
COc1ccc(/N=c2\[nH]nc3nc(C)cc(C)n23)cc1: 7.91%
CN1CC[C@H](OC(=O)C2(c3ccc(F)cc3)CCCC2)C1: 21.5%
OC(CNc1ncnc2nc[nH]c12)c1ccc2ccccc2c1 (centres unmarked): 23.3%
Cn1nccc1-c1cccc(-c2ccc(=O)n(C)n2)c1: 2.71%
CCn1c(C)c(C)c2c(-c3ccccc3)c(C(OC(C)(C)C)C(=O)O)c(C)nc21 (centres unmarked): 91.7%

Study 2 — cell line: A-375; tested at: 100 µM; time: 18 h; endpoint: viability
COCCc1ccc(OCC(O)CNC(C)C)cc1 (centres unmarked): 101%
CCCCCCCCCC[C@H](C(=O)O)[C@]1(C(=O)O)CCC(=O)O1: 94.4%
CCOc1ccccc1O[C@H](c1ccccc1)[C@H]1CNCCO1 (racemic): 104%
CNCCC=C1c2ccccc2CCc2ccccc21: 7.66%
CN[C@@H]1[C@@H](O)[C@@H](O[C@@H]2[C@@H](O)[C@H](O[C@H]3OC(CN)=CC[C@H]3N)[C@@H](N)C[C@H]2N)OC[C@]1(C)O: 94.6%
COc1cc([C@@H]2c3cc4c(cc3[C@@H](O[C@@H]3O[C@@H]5CO[C@@H](C)O[C@H]5[C@H](O)[C@H]3O)[C@H]3COC(=O)[C@H]23)OCO4)cc(OC)c1O: 81.5%

Study 3 — organism: Sarcocystis neurona; effect on: parasite activity; tested at: 10 µM; time: 96 h; endpoint: activity class
Nc1nc(N)nc(-c2cc(Cl)ccc2Cl)n1: inactive
CN1CC(=O)N2[C@H](c3ccc4c(c3)OCO4)c3[nH]c4ccccc4c3C[C@@H]2C1=O: inactive
O=C(CCNNC(=O)c1ccncc1)NCc1ccccc1: inactive
O=S(=O)(O)CCS: inactive
Nc1nc(O)c2ncn(COC(CO)CO)c2n1: inactive
C#C[C@]1(O)CC[C@H]2[C@@H]3CCC4=CC(=O)CC[C@@H]4[C@H]3CC[C@@]21C: inactive
CCCc1nc2c(C)cc(-c3nc4ccccc4n3C)cc2n1Cc1ccc(-c2ccccc2C(=O)O)cc1: inactive

Study 4 — tested at: 1 µM; endpoint: remaining binding
Compound: CO[C@@H](C)c1c(Nc2ccc([C@H](N(C)C(=O)C3CCS(=O)(=O)CC3)C(F)(F)F)cc2)cnc2cc(Cl)nn12
LIM domain kinase 1 (LIMK1, Homo sapiens, UniProt P53667); cell-free assay, competition with immobilised ligand: 100%
Mitogen-activated protein kinase kinase kinase kinase 3 (MAP4K3, Homo sapiens, UniProt Q8IVH8); cell-free assay, competition with immobilised ligand: 99%
Mitotic checkpoint serine/threonine-protein kinase BUB1 (BUB1, Homo sapiens, UniProt O43683); cell-free assay, competition with immobilised ligand: 100%
Calcium/calmodulin-dependent protein kinase type II subunit alpha (CAMK2A, Homo sapiens, UniProt Q9UQM7); cell-free assay, competition with immobilised ligand: 83%
Tyrosine-protein kinase ABL1, phosphorylated (ABL1, Homo sapiens, UniProt P00519, E255K); binding, competition with immobilised ligand: 76%
Receptor-type tyrosine-protein kinase FLT3 (FLT3, Homo sapiens, UniProt P36888, D835H); cell-free assay, competition with immobilised ligand: 75%
Testis-specific serine/threonine-protein kinase 1 (TSSK1B, Homo sapiens, UniProt Q9BXA7); cell-free assay, competition with immobilised ligand: 100%
Serine/threonine-protein kinase MRCK gamma (CDC42BPG, Homo sapiens, UniProt Q6DT37); competition binding: 87%
Tyrosine-protein kinase ABL1, phosphorylated (ABL1, Homo sapiens, UniProt P00519, M351T); cell-free assay, competition with immobilised ligand: 65%
Serine/threonine-protein kinase Nek3 (NEK3, Homo sapiens, UniProt P51956); binding, competition with immobilised ligand: 40%
Serine/threonine-protein kinase STK11 (STK11, Homo sapiens, UniProt Q15831); cell-free assay, competition with immobilised ligand: 68%
Glycogen synthase kinase-3 beta (GSK3B, Homo sapiens, UniProt P49841); cell-free assay, competition with immobilised ligand: 100%
Casein kinase I isoform alpha (CSNK1A1, Homo sapiens, UniProt P48729); cell-free assay, competition with immobilised ligand: 51%
Transient receptor potential cation channel subfamily M member 6 (TRPM6, Homo sapiens, UniProt Q9BX84); cell-free assay, competition with immobilised ligand: 100%
MAP kinase-activated protein kinase 2 (MAPKAPK2, Homo sapiens, UniProt P49137); cell-free assay, competition with immobilised ligand: 90%

Repeated from above (study 1):
OC(CNc1ncnc2nc[nH]c12)c1ccc2ccccc2c1 (centres unmarked): 23.3%
Cn1nccc1-c1cccc(-c2ccc(=O)n(C)n2)c1: 2.71%
OC1(CNCc2ccccc2)CCc2ccccc21 (centres unmarked): 5.67%
COc1ccc(/N=c2\[nH]nc3nc(C)cc(C)n23)cc1: 7.91%
